Literature values that unrelated publications cite.
Protocols differ between the studies behind these lines. Numbers after ± are the reported error.

SMILES	target or system	assay	test system	conditions	quantity	result
C[C@]12CC[C@@H]3c4ccc(O)cc4C[C@@H](CCCCCCCCC[S+]([O-])CCCC(F)(F)C(F)(F)F)[C@H]3[C@@H]1CC[C@@H]2O (some centres unmarked)	MCF7			concentration not given, together with: insulin stimulation	cell proliferation	inhibited
CNC(C)C1CCC(N)C(OC2C(N)CC(N)C(OC3OCC(C)(O)C(NC)C3O)C2O)O1 (centres unmarked)	Pseudomonas aeruginosa		clinical isolate RKI-No_470/12		MIC	> 8 µg/mL
COc1cc2ncnc(Nc3ccc(F)c(Cl)c3)c2cc1OCCCN1CCOCC1	NCI60 panel	cell growth			mean TGI	19000 nM
OCc1cn(Cc2cccc(Cl)c2)c2ccccc12	fifty-eight cancer lines			median	GI50	1620 nM
[Ru+2].c1ccc(-c2ccnc3c2ccc2c(-c4ccccc4)ccnc23)cc1.c1ccc(-c2ccnc3c2ccc2c(-c4ccccc4)ccnc23)cc1.c1ccc(-c2ccnc3c2ccc2c(-c4ccccc4)ccnc23)cc1	Jurkat			light irradiation	EC50	75 nM
C[C@H]1COCCN1c1nc(-c2cnc(N)cc2C(F)F)nc(N2CCOCC2)n1	FaDu				GI50	463 nM
Cc1c(C#N)cccc1[C@@H](C)Nc1nnc(C)c2cnc(N3CCOCC3)cc12	LN-229	3D cell viability		14 d	IC50	65 ± 18.2 nM
CC1(C)S[C@@H]2[C@H](NC(=O)[C@H](N)c3ccccc3)C(=O)N2[C@H]1C(=O)O	Pseudomonas aeruginosa		clinical isolate RKI-No_93/12		MIC	> 16 µg/mL
CC(C)(C)c1ccc(O)c(CN(Cc2cc(C(C)(C)C)ccc2O)C2CCC(NC(N)=O)CC2)c1 (centres unmarked)	HMC3			concentration not given, together with: thrombin	PAR-1 expression	decreased
CC(=O)O[C@@]12CO[C@@H]1C[C@H](O)[C@@]1(C)C(=O)[C@H](O)C3=C(C)[C@@H](OC(=O)[C@H](O)[C@@H](NC(=O)OC(C)(C)C)c4ccccc4)C[C@@](O)([C@@H](OC(=O)c4ccccc4)[C@H]21)C3(C)C	PC-3	cell growth		72 h	EC50	15 ± 4 nM
NC1(c2ccc(-c3nc4ccn5c(=O)[nH]nc5c4cc3-c3ccccc3)cc2)CCC1	T98G				IC50	60400 nM
CC(=O)c1c(C)c2cnc(Nc3ccc(N4CCNCC4)cn3)nc2n(C2CCCC2)c1=O	human neutrophils			concentration not given, together with: fMLF	cAMP level	no effect
CCCCN1CC[C@@H](CCC(O)c2cc(OCCC)nc3ccc(OC)cc23)[C@@H](CC)C1 (some centres unmarked)	Plasmodium falciparum	whole cell extended time	3D7	72 h	IC50	360 nM
CN1CC[C@@H](c2c(O)cc(O)c3c(=O)cc(-c4ccc(C(F)(F)F)cc4Cl)oc23)[C@@H]1CO	CLL cells			in vitro	concentration for near-complete apoptosis	≥ 1.5 µM
C[C@@H](O)[C@@H]1NC(=O)[C@H](CCCCN)NC(=O)[C@@H](Cc2c[nH]c3ccccc23)NC(=O)[C@H](Cc2ccc(O)cc2)NC(=O)[C@H](NC(=O)[C@H](Cc2ccc([N+](=O)[O-])cc2)NC(=O)CN2CCCN3CCN(CCCN(CC(=O)O)CC3)CC2)CSSC[C@@H](C(=O)N[C@H](Cc2ccc(O)cc2)C(N)=O)NC1=O [copper-64 labelled]	AR-42J	binding			Kd	26 ± 2.4 nM
CCCCCCCCCc1c(C)[nH]c2ccccc2c1=O	Plasmodium falciparum	whole cell extended time	3D7	72 h	IC50	160 nM
N#Cc1cc(NC(=O)[C@H]2c3ccccc3C(=O)N(CC(F)(F)F)[C@@H]2c2cccnc2)ccc1F	trophozoite/schizont-infected erythrocytes				concentration for maximal eryptosis	~40 nM
COc1ccc(-c2coc3cc(O)cc(O)c3c2=O)cc1	Caco-2 monolayers			concentration not given	TEER increase	≤ 36%
Nc1cc(C(F)(F)F)c(-c2nc(N3CCOCC3)nc(N3CCOCC3)n2)cn1	NCI-H460				GI50	477 nM
Cc1nc(NC(=O)N2CCC[C@H]2C(N)=O)sc1-c1ccnc(C(C)(C)C(F)(F)F)c1	A 172				IC50	119000 nM

Some of these lines once more:
SMILES	target or system	assay	test system	conditions	quantity	result
COc1cc2ncnc(Nc3ccc(F)c(Cl)c3)c2cc1OCCCN1CCOCC1	NCI60 panel	cell growth			mean TGI	19000 nM
